# Experimental data gathered from unrelated publications.
# Compare with care: the assays were run in different laboratories. Values joined by “and” are separate records of one study, mostly repeats; a detail may differ. ± marks the error that the study gave. Bridges are numbered along the chain shown (N, C = ends). Where no end group is shown, it is not given here.
# T1: B2m/H2-D1 single-chain trimer MHC part (Mus musculus); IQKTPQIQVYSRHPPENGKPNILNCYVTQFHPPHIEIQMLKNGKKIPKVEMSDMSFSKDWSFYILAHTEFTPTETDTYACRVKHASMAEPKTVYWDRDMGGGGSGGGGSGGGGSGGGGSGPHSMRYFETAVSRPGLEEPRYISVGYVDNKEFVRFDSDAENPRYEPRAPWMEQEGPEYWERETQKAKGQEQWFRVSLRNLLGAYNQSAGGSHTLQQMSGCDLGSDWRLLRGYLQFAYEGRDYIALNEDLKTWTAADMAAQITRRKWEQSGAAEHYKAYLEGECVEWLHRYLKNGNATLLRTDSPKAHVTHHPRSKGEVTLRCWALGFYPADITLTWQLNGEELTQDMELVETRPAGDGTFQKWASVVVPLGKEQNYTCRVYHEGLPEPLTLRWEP
# B1: UGT1A9 (Homo sapiens, UniProt O60656); chain GKLLVVPMDGSHWFTMRSVVEKLILRGHEVVVVMPEVSWQLGRSLNCTVKTYSTSYTLEDLDREFKAFAHAQWKAQVRSIYSLLMGSYNDIFDLFFSNCRSLFKDKKLVEYLKESSFDAVFLDPFDNCGLIVAKYFSLPSVVFARGILCHYLEEGAQCPAPLSYVPRILLGFSDAMTFKERVRNHIMHLEEHLLCHRFFKNALEIASEILQTPVTEYDLYSHTSIWLLRTDFVLDYPKPVMPNMIFIGGINCHQGKPLPMEFEAYINASGEHGIVVFSLGSMVSEIPEKKAMAIADALGKIPQTVLWRYTGTRPSNLANNTILVKWLPQNDLLGHPMTRAFITHAGSHGVYESICNGVPMVMMPLFGDQMDNAKRMETKGAGVTLNVLEMTSEDLENALKAVINDKSYKENIMRLSSLHKDRPVEPLDLAVFWVEFVMRHKGAPHLRPAAHDLTWYQYHSLDVIGFLLAVVLTVAFITFKCCAYGYRKCLGKKGRVKKAHKSKTH
Molecule,tested on,assay,test system,conditions,scale,measurement,value
CN(C)Cc1cc(OCCC[18F])ccc1Sc1ccccc1N,SERT,,"male Sprague Dawley rat, control, striatum","intravenous, 60 min",,tissue uptake,0.53 ± 0.09 %ID/g
Insulin human,,,"rat, substantia nigra/VTA","intranasal, 20 µg per nostril, 60 min",,brain concentration,92.7 ± 15.3 pg/mg tissue
Cn1c(-c2ccc(C(N)=O)cc2F)nnc1C(C)(C)Oc1c(F)cc(Cl)cc1F,,,"healthy young Japanese subjects, plasma","oral, 10 mg once daily, day 18, 14 days dosing",,Cmax median,172 ng/mL
CC(C)[C@H](NC(=O)[C@@H]1CCCN1C(=O)[C@H](CCCNC(=N)N)NC(=O)[C@H](CS)NC(=O)[C@H](Cc1c[nH]c2ccccc12)NC(=O)[C@H](CCCNC(=N)N)NC(=O)[C@@H](Cc1ccccc1)NC(=O)[C@H](Cc1c[nH]cn1)NC(=O)[C@H](CCC(=O)O)NC(=O)[C@H](CS)NC(=O)[C@H](CS)NC(=O)[C@H](CCCCN)NC(=O)[C@@H]1CC(=O)N[C@@H](CCCNC(=N)N)C(=O)N[C@@H](C)C(=O)N[C@@H](CC(=O)O)C(=O)N[C@H](Cc2ccc(O)cc2)C(=O)N1)C(N)=O [technetium-99m labelled],,,"C57 mice, muscle","intravenous, 0.037 MBq, 2 h",,tissue uptake,0.14 ± 0.08 %ID/g
"PRL (Homo sapiens, UniProt P01236)",,"NMR, refers to: His59",,"35 °C, numbering of the source",,pKa,5.84
CGGQDLKSC (disulfide 1-9 (inferred)) (disulfide),CuFi-1,flow cytometry,nanoparticles after CF sputum permeation,"2 h, 37 °C",relative to: unmodified carboxylated nanoparticles,cell uptake,~3 fold
CC(C)(C)c1nn(-c2cc(OCc3cn(Cc4cccc(C(F)(F)F)c4)nn3)c(Cl)cc2Cl)c(=O)o1,Toxoplasma gondii,"intracellular parasite growth, luminescence","HFF, wild type, NanoLuc reporter",96 h,,IC50,< 2500 nM and 1400 nM
"BshA (Bacillus subtilis, UniProt P42982)",CC(=O)N[C@H]1[C@@H](OP(=O)(O)OP(=O)(O)OC[C@H]2O[C@@H](n3ccc(=O)[nH]c3=O)[C@H](O)[C@@H]2O)O[C@H](CO)[C@@H](O)[C@@H]1O,steady-state kinetics,,"pH 7.5, 21 °C, together with: malate 0–25 mM",,kcat,2.63 ± 0.07 s⁻¹
B1 (UGT1A9),COc1ccc([C@@H]2CC(=O)c3c(O)cc(O)cc3O2)cc1O,steady-state kinetics,,"pH 7.4, 37 °C",,Vmax/Km,407 µL/min/mg and 977 µL/min/mg
TAPDNLGKM (Tyrp1 peptide residues 455-463 Y8K/A9M),"T1, B2m/H2-D1 single-chain trimer MHC part (Mus musculus)",differential scanning fluorimetry,peptide,,,Tm,39.5 °C
Cc1ccc(NC(=O)c2ccc(CN3CCN(C)CC3)cc2)cc1Nc1nccc(-c2cccnc2)n1,,"cytochrome c release, ELISA",BALB/cByJ female mouse liver mitochondria,30 min,relative to: alamethicin maximal release,EC20,164 µM
Transferrin,human IAPP,"fibrillization, thioflavin T fluorescence",,"0.5 µM, pH 8.0, 37 °C, together with: 25 µM hIAPP",,time to control fluorescence maximum,12 h

# For quick reference, copied from above:
Molecule,tested on,assay,test system,conditions,scale,measurement,value
CC(C)(C)c1nn(-c2cc(OCc3cn(Cc4cccc(C(F)(F)F)c4)nn3)c(Cl)cc2Cl)c(=O)o1,Toxoplasma gondii,"intracellular parasite growth, luminescence","HFF, wild type, NanoLuc reporter",96 h,,IC50,< 2500 nM and 1400 nM
